Published values gathered from unrelated publications.
A part holds a random share of what one study measured.

Study 1 — technique: protein-binding microarray; molecule type: double-stranded DNA, one strand shown; sample: in vitro; concentration: 250 nM; notes: 60-bp whole probe; together with: salmon DNA 0.4 mg/ml; relative to: random background probes; reading: higher = stronger binding; constant ends, left off below: GCCTAGCAC … GTCTTGATTCGCTTGACGCTGCTG
Target: Interferon regulatory factor 7, full length, phosphomimetic (IRF7, Homo sapiens, UniProt Q92985, residues 1-503, S101K/S471D/S472D/S475D/S476D/S477D/S483D/S484D/S487D)
Sequence of UniProt Q92985 (whole entry, unmodified, looked up): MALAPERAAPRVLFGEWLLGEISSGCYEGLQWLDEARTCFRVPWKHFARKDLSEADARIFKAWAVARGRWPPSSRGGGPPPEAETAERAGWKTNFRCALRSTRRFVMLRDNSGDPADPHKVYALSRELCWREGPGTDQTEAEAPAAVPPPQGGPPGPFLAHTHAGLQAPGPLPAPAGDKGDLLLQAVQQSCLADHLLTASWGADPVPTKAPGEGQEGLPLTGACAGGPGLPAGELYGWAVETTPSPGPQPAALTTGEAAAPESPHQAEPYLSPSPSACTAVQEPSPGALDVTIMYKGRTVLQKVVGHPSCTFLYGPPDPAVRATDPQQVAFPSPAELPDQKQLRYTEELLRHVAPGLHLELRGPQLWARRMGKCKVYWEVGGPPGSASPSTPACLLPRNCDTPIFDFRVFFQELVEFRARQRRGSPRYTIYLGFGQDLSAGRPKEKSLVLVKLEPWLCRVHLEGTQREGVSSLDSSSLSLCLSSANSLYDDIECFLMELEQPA
Oligonucleotide	log fluorescence
GACGGTTTCCTACCGCTGACGTGCTAG	1.22 z-score
TCAGGTCTCGGTATCGGTTAGTGCTAG	3.32 z-score
TGTTTTACAGGTTCTCTTTTAGTGCTA	3.42 z-score
GACTATTTCAGACTGGAGACGTGCTAG	0.716 z-score
TCAAGCTTGGGTCTGTGACTGTGCTAG	-0.904 z-score
TTACGACTGCTACTGCTTTAGTGCTAG	-0.474 z-score
TTACAACTGGGGACTGGATTAGTGCTA	0.044 z-score
TTAGGTCTCGGTTTGGGTTAGTGCTAG	6.9 z-score
GTCGAACTGAGTCTCGAGACGTGCTAG	0.894 z-score
TAAGATTTCGGGTATCGATTAGTGCTA	1.93 z-score
GACGATTTCAGTTTCGATACGTGCTAG	7.63 z-score
TCAAGAAAGTGAAATACCACTGTGCTA	-0.465 z-score
GACGGTTTCGGTCTGGGGACGTGCTAG	8.49 z-score
GACGATATCGGGTTTTGAGACGTGCTA	-0.264 z-score
TTAGGACTAGACACTGGGTTAGTGCTA	-0.0329 z-score
GACGAACTGGGGTATCTAGACGTGCTA	-1.07 z-score
TTTCTTTTTGCACTCTCTACGTGCTAG	4.31 z-score
TTAGAACTGGGGTTTCCATTAGTGCTA	1.03 z-score
TTAGGACTTGACTTTCGGTTAGTGCTA	1.45 z-score
CACGGTCTCGGTATCGGGACGTGCTAG	2.05 z-score
TTGGCTTTCCTTTATGTCCTGTGCTAG	0.163 z-score
TTTGATTTCGGGACTGGATTAGTGCTA	0.954 z-score
CTTGTTCTTAGCTTGGGTCTGTGCTAG	0.791 z-score
AGTTTTCTCATTCGTCATTTCGTGCTA	2.87 z-score
TTAGAACTGAGTTTCAATTAGTGCTAG	0.552 z-score

Study 2 — technique: RNA Bind-n-Seq; molecule type: RNA; sample: in vitro; concentration: 365 nM; relative to: no-protein control; reading: higher = stronger binding
Target: RNA binding protein fox-1 homolog 2, RRM domain, GST-SBP tag (RBFOX2, Homo sapiens, UniProt O43251-10, residues 100-194)
Notes: natural RNA segment, single round, ends assumed
Constant ends, left off below: GGGAGUUCUACAGUCCGACGAUC … UGGAAUUCUCGGGUGCCAA
Residues (chain): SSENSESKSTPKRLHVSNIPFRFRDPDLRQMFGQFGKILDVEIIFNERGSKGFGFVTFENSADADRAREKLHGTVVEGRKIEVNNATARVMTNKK
Oligonucleotide	RBNS enrichment (R)
UUGUUUGGAAAAUAAGAGCCAAUUUUUCUUAGAAUAUAUAUGUAUAUUAAAUGAGCAUUUGACCUGUAGAUACAUAGUGUGCCGUUUGGCCAGAGCUCCUGGUGUCAAAU	0.696
AAUGUGAUAAAUCUUUUUGUAGUUCCUUGGAGGAUAGCUGAUAUCCCACUCCUUCGUUUUUCCUCUCAAAUCUCCUUGGUGACCUCAUUGACUGGGAGCAUGGCCAGGCA	8.21
GAAGAUGGCUCAGGAAGCCACUGUCACGGUUCCUGGAGGCUGGGCCCUCUCAUUGACAUGUACACUACUCCUCGCUGCAGGGCACUGUUCCACCUGGAUCCAGUUGCAAA	0.982
AGAUUCUCUGUCCUUUGCACAUAACUUUCUUUUAAACUUAGUUCUAACCCUAAAUCUUGACAUCAGAAAGUGUUUGCACUGUAUAAACAAUGUUAGCUGAAAGCAUGUUU	1.34
ACGUCUUCAUUCAUUGGAGUAACUGGUUUAGGCUUUCCAGUUUGGAAAAGGAGCAGAGAGCUGUCCAUCUGGAUUGAUGGAAGAAAAGAGAACCUCAUCCAUGCCUGGAG	0.284
GUGACCUGUUGACGUAACUAAGCCUUACAGCAAGGCAUGUGCCGCACGUGCUCCGUGGUACUUAGAGCCCUGGGGGCCCCGCUCGGACUCCGGGUCUCCCUAGGAUAUGC	0.565
AAUUCCUUUGGCAUUUGGGGUUUUGUUUUUCCUUUUUUCCUUCUUCAUCCUCCUCCUUUUUUAAAAGUCAACGAGAGCCUUCGCUGACUCCACCGAAGAGGUGCGCCACU	0.495
GUCUGGAAGCGUAUGGAAUCAGAAAUAAUCCUCAGUGUAAAAUGUCUUGUGAUUUUUCUCUGUGAAUCCGUGGGUCUGGCUAGAAGGCCCAAUGCUGUAAAUAUGGGGAU	2.3
ACUCACAUGACAGAGCAACUCUGAAUGCAAAGUGACAUCUUCACAAAUGCCAUGGCCAUUGCUGACCCAUGAUUCAGCUAAGUUAAGCAGUCAUAAGGAAAGAAUUACGU	0.272
UCAUUAACAGCCUGGGUGAACAUGGCUGGGAGUAAAGGGCUUGCUCUCCUGCAUGUUGACAUGACGGCCCUUUCCAAGGGUGAUGGAGGCUUUCCCAAGCUAAGGGCCUA	6.42
UCCUAUUGAACCAUGUUUGUGGCUAUUAAAACUCUUUUAACAGUCUGGGCUGGGUCCGGUGGCUCACGCCUGUAAUCCCAGCAAUUUGGGAGUCCGAGGCGGGCGGAUCA	3.53
UAUGGAGCAGCCGGAAGUCUGUUCUCAAAGCAGAAGUGGAAUCCAGUGUGGCUCCCACAGGUCUUCACUGCCCAGGGGUCGAAUGGGGUCCCCCUCCCACUUGACCUGAG	0.176

Study 3 — technique: RNA Bind-n-Seq; molecule type: RNA; sample: in vitro; concentration: 20 nM; notes: 6-mer, flanks averaged, single round; together with: 150 mM LiCl; relative to: input library; reading: higher = stronger binding
Target: TAR DNA-binding protein 43, full length, His tag (TARDBP, Homo sapiens, UniProt Q13148, residues 1-414)
Oligonucleotide	6-mer enrichment (R)
AUCCGU	0.839
CGACAU	0.814
AAACCG	0.79
UCUUUG	1.03
UUGCGC	1.03
CGACGC	0.826
UGCACG	0.953
CGACAC	0.887
UCGUCG	1.04
UCUCCG	0.878
GCAUCA	0.839
AGCGGG	1.12
CCUCGG	0.865
ACAAGU	0.864

Study 4 — target: human cyclin A2; observed: peptide binding; technique: competitive growth sequencing; molecule type: peptide; organism: Saccharomyces cerevisiae; strain: cyclin A2-Cln2 fusion strain; concentration: concentration not given; notes: peptide tiling library; relative to: unfused Cln2 strain; reading: direction not given
Sequence	binding score
ARKRLELGNLGNPQ	2.53
KPHVSDEEEEEPPFYH	0.198
RTEALEQGGLPKKLIF	0.685
DVSERGYVILPNDYFE	-0.282
HRRRLLFACSPPPASQ	1.05
GSKACARAFGPVDSEQ	-0.514
ELGMEHCEKFEISETS	0.766
RSLKLDGLLEEN	1.13
FEKVKARADLDIDGLQ	-0.0631
SPREGHMMDALYAQVK	0.812
EAAPPTQEAQGETEPT	0.825
AKRSLGFLPQPVPL	1.24
YRSRIRRELFIEEIQA	1.85
ESSTVSEEDYFSSHRD	0.287
QYQVVDDIVSKLVFDF	0.0658
PPTFLSTGEIHAFLSS	0.113
LRRKLFLDGNGSIS	0.643
ISRLFPPRTPGWHQLQ	1.11
NVVSADDAIQFTRVSS	-0.183
SSPSVRRQLFVTVVKT	1.97
NRLLKLFTRCLTPLVP	0.392
VSRNLRSSLKSSLHTL	1.01

Study 5 — technique: RNAcompete; molecule type: RNA; sample: in vitro; concentration: 20 nM; notes: 7-mer, probes averaged, single round; relative to: mean of 7-mers; reading: higher = stronger binding
Target: PABPC1L2, full length, GST fusion (mouse, UniProt A0ABA7IW68)
Target sequence (chain): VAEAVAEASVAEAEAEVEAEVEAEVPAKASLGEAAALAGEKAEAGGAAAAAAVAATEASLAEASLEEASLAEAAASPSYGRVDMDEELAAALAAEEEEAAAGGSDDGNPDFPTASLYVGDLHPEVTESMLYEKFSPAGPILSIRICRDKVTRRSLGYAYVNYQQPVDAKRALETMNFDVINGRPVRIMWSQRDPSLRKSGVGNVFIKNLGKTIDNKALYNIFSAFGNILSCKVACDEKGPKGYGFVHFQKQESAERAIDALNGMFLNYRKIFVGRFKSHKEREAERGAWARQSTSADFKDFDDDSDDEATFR
Oligonucleotide	7-mer Z-score
GAAGAGU	-0.15
ACAUUGU	-0.0699
ACUUCCC	-0.391
CGCUCAA	-0.157
CAUGCGG	-0.0591
GGGUGUG	0.167
UUAGAUU	-0.179
UUCCGGU	-0.293
CCUUUGA	-0.0808
GUAAAGA	0.769
UAAAAAG	12.3
GCAACAC	0.0696
ACCCCUU	-0.349
UGUGACU	-0.251
CGUGUCG	-0.309
GGCGACA	0.318
GAUAAAC	1.33
GCUUGUU	-0.394
UUUCACU	-0.347

Study 6 — technique: protein binding microarray; molecule type: double-stranded DNA, one strand shown; sample: in vitro; concentration: not given; relative to: not given; reading: higher = stronger binding
Target: Histone acetyltransferase KAT6A, winged helix 1, GST fusion (KAT6A, Homo sapiens, UniProt Q92794, residues 1-85)
Notes: 8-mer, flanks averaged, mean of 2 arrays, mostly near background
Target sequence (chain): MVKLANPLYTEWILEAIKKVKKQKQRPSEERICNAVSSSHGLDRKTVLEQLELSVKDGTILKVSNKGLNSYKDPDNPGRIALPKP
Oligonucleotide	E-score
CTAAGTAA	-0.000375
CATGCTAG	-0.182
AGATAGCG	0.0326
GCAAAACC	0.0631
TACGTTCA	-0.152
GGTAGCCA	-0.168
ATATGCGC	0.265
AAATGCAC	-0.168
TAATGACA	-0.238
ATATTGCG	0.254
CATATTCC	-0.0564
AATACTGA	-0.0775
TACCCACA	-0.0945
AGGACTTG	-0.249
AAAGCGCA	0.29
ACGCATAA	-0.0168
GCCTGGCC	0.143

Excerpt of the above (study 1):
Oligonucleotide	log fluorescence
TTAGGACTAGACACTGGGTTAGTGCTA	-0.0329 z-score
GACGAACTGGGGTATCTAGACGTGCTA	-1.07 z-score
TTTCTTTTTGCACTCTCTACGTGCTAG	4.31 z-score
TTAGAACTGGGGTTTCCATTAGTGCTA	1.03 z-score
TTAGGACTTGACTTTCGGTTAGTGCTA	1.45 z-score
CACGGTCTCGGTATCGGGACGTGCTAG	2.05 z-score
